Results gathered from unrelated publications.
Lines come from different studies, so protocols differ. ± marks the error that the study gave.

| SMILES | tested on | test | test system | setting | endpoint | result |
| --- | --- | --- | --- | --- | --- | --- |
| C[C@@H](N)COc1ccc(-c2cnc3ccc(N[C@H](C)c4cccc(F)c4)nn23)cc1 | HCC78 (SLC34A2-ROS1) | cell viability | – | – | IC50 | 0.015 µM |
| Cc1ccc(C(=O)Nc2ccc(CN3CCN(C)CC3)c(C(F)(F)F)c2)cc1C#Cc1cnc2cccnn12 | 7dF3 | WNT reporter gene, inhibitor | – | – | IC50 | 0.041 µM |
| Cc1nc(NC(=O)N2CCC[C@H]2C(N)=O)sc1-c1ccnc(C(C)(C)C(F)(F)F)c1 | MFM-223 | growth rate inhibition, CellTiter-Glo | – | 120 h | IC50 | 4.24 µM |
| Cc1nc(Nc2ncc(C(=O)Nc3c(C)cccc3Cl)s2)cc(N2CC[C@H](O)C2)n1 | PEER | cell proliferation, CellTiter-Glo | – | 72 h | IC50 | > 10 µM |
| Cc1nc(Nc2ncc(C(=O)Nc3c(C)cccc3Cl)s2)cc(N2CCN(CCO)CC2)n1 | SW1990 | cell viability, MTT | – | mutant KRAS spleen metastasis | IC50 | 4.87 µM |
| CC[C@H](C)[C@@H]1NC(=O)[C@H](Cc2ccc(-c3ccccc3)cc2)NC(=O)[C@H](CC(C)C)NC(=O)[C@@H]2[C@@H](c3ccccc3)CCN2C(=O)[C@H](NC(=O)[C@@H](CCCNC(=N)N)NC(=O)[C@@H](CCCNC(=N)N)NC(C)=O)CSCSC[C@@H](C(=O)N[C@H](CCCNC(=N)N)C(=O)N[C@H](CCCNC(=N)N)C(N)=O)NC(=O)[C@H](C(C)C)NC(=O)[C@@H]2CCCN2C(=O)[C@H](CC(=O)O)NC(=O)[C@H](Cc2ccc(O)cc2)NC(=O)[C@](C)(CO)NC1=O | AsPC-1 | AlphaScreen, refers to: pERK | – | 18 h | IC50 | 4 µM |
| NCCOCCCN1CCN(c2ccc(-c3cncc(Cl)c3N3CCC4(CCNC4=O)CC3)cc2)CC1 | 7dF3 | WNT reporter gene, inhibitor | – | – | IC50 | 0.007 ± 0.003 µM |
| CCCCN1C[C@H](O)[C@@H](O)[C@H](O)[C@H]1CO | Sandhoff disease patient fibroblasts | glycosphingolipid lowering, LC-MS/MS, refers to: GM3 d18:1/23:0 | – | – | IC50 | 6.85 µM |
| Cn1cc(C2=C(c3ccc(Cl)cc3Cl)C(=O)NC2=O)c2ccccc21 | Trypanosoma brucei | cell growth | – | – | EC50 | > 3 µM |
| CC(=O)O[C@@]12CO[C@@H]1C[C@H](O)[C@@]1(C)C(=O)[C@H](O)C3=C(C)[C@@H](OC(=O)[C@H](O)[C@@H](NC(=O)OC(C)(C)C)c4ccccc4)C[C@@](O)([C@@H](OC(=O)c4ccccc4)[C@H]21)C3(C)C | Abrams canine osteosarcoma | cell viability, resazurin | – | 72 h | IC50 | 0.0416 µM |
| CCN(CCO)CCCC(C)Nc1ccnc2cc(Cl)ccc12 (stereo not drawn) | human PBMC | IFN-driven gene expression, inhibitor, qRT-PCR, refers to: IFI44L mRNA | – | two donors, with: ssRNA | IC50 | 2.2 ± 0.8 µM |
| COc1ccc(F)cc1C(=O)NCc1ccc(-c2nn([C@@H](C)C(F)(F)F)c(N)c2C(N)=O)cc1 | Rec1 | refers to: PDGF-AA | – | 24 h | IC50 | > 0.1 µM |
| CCCCCN1C[C@H](O)[C@@H](O)[C@H](O)[C@@H]1CO | Sandhoff disease patient fibroblasts | glycosphingolipid lowering, LC-MS/MS, refers to: GM3 d18:1/23:0 | – | – | IC50 | 0.82 µM |
| COc1cc(N2CCC(N3CCN(C)CC3)CC2)ccc1Nc1ncc(Cl)c(Nc2ccccc2S(=O)(=O)C(C)C)n1 | Rh28 (alveolar rhabdomyosarcoma) | cell growth | – | 3 days | IC50 | 0.08 ± 0.02 µM |
| O=C(NCc1cc[nH]n1)c1ccc(C2CCCCC2)cc1 | – | hepatocyte stability | cryopreserved rat hepatocytes | 1 µM | hepatic clearance | 52 mL/min/kg |
| CC(C)c1cccc(C(C)C)c1-n1ccn(-c2c(C(C)C)cccc2C(C)C)c1=[Se] | H157 lung carcinoma cells | cell viability, MTT | – | 72 h | IC50 | 8.4 µM |
| CC[C@H](C)[C@@H]1NC(=O)[C@H](Cc2ccc(-c3ccccc3)cc2)NC(=O)[C@H](CC(C)C)NC(=O)[C@@H]2[C@@H](c3ccccc3)CCN2C(=O)[C@H](NC(=O)[C@@H](CCCNC(=N)N)NC(=O)[C@@H](CCCNC(=N)N)NC(=O)[C@H](CCCCN=[N+]=[N-])NC(C)=O)CSCSC[C@@H](C(=O)N[C@H](CCCNC(=N)N)C(=O)N[C@H](CCCNC(=N)N)C(N)=O)NC(=O)[C@H](C(C)C)NC(=O)[C@@H]2CCCN2C(=O)[C@H](CC(=O)O)NC(=O)[C@H](Cc2ccc(O)cc2)NC(=O)[C@](C)(CO)NC1=O | AsPC-1 | AlphaScreen, refers to: pERK | – | 18 h | IC50 | 7 µM |
| Nc1nnc(-c2ccccc2O)cc1N1CCN(Cc2ccc(OCCOCCNc3cccc4c3C(=O)N(C3CCC(=O)NC3=O)C4=O)c(F)c2)CC1 (stereo not drawn) | SMARCA4-mutant lung cancer cells | clonogenic growth | – | 10 days, median over cell lines | IC50 | 0.11 µM |
| COCCC(=O)Nc1ccc([C@H]2[C@@H](F)[C@@H](F)C[C@@H](F)[C@H]2F)cc1 | – | liver microsome stability | mouse liver microsomes | 1 µM | hepatic clearance | 35 mL/min/kg |
| C=CC(=O)Nc1cc(Nc2nccc(-c3cn(C)c4ccccc34)n2)c(OC)cc1N(C)CCN(C)C | Ba/F3 EGFR D770_N771insSVD | cell growth, CellTiter-Glo | – | 72 h | IC50 | 0.035 ± 0.00189 µM |
| Cc1cc(Nc2ncc(Cl)c(Nc3ccccc3S(=O)(=O)C(C)C)n2)c(OC(C)C)cc1C1CCNCC1 | Rh28 (alveolar rhabdomyosarcoma) | cell growth | – | 3 days | IC50 | 0.15 ± 0.04 µM |
| CC[C@H](C)[C@@H]1NC(=O)[C@H](Cc2ccc(-c3ccccc3)cc2)NC(=O)[C@H](CC(C)C)NC(=O)[C@@H]2[C@@H](c3ccccc3)CCN2C(=O)[C@H](NC(=O)[C@H](CCCNC(=N)N)NC(=O)[C@H](CCCNC(=N)N)NC(=O)[C@H](CCCCN=[N+]=[N-])NC(C)=O)CSCSC[C@@H](C(=O)N[C@@H](CCCNC(=N)N)C(=O)N[C@@H](CCCNC(=N)N)C(N)=O)NC(=O)[C@H](C(C)C)NC(=O)[C@@H]2CCCN2C(=O)[C@H](CC(=O)O)NC(=O)[C@H](Cc2ccc(O)cc2)NC(=O)[C@H](CO)NC1=O | AsPC-1 | AlphaScreen, refers to: pERK | – | 2 h | IC50 | 3 µM |
| COC(=O)c1ccccc1-c1c2ccc(=N)cc-2oc2cc(N)ccc12 | untransduced HeLa | CellTiter-Glo | – | 48 h | IC50 | 5.72 ± 0.7 µM |
| CCCCN1C[C@H](O)[C@@H](O)[C@@H](O)[C@H]1CO | sample D patient fibroblasts | Gb3 level lowering, LC-MS/MS, refers to: Gb3 d18:1/24:0 | – | 216 h | IC50 | 10.9 µM |

A few entries again:
| SMILES | tested on | test | test system | setting | endpoint | result |
| --- | --- | --- | --- | --- | --- | --- |
| CCN(CCO)CCCC(C)Nc1ccnc2cc(Cl)ccc12 (stereo not drawn) | human PBMC | IFN-driven gene expression, inhibitor, qRT-PCR, refers to: IFI44L mRNA | – | two donors, with: ssRNA | IC50 | 2.2 ± 0.8 µM |
| CCCCN1C[C@H](O)[C@@H](O)[C@H](O)[C@H]1CO | Sandhoff disease patient fibroblasts | glycosphingolipid lowering, LC-MS/MS, refers to: GM3 d18:1/23:0 | – | – | IC50 | 6.85 µM |
| Cc1nc(Nc2ncc(C(=O)Nc3c(C)cccc3Cl)s2)cc(N2CC[C@H](O)C2)n1 | PEER | cell proliferation, CellTiter-Glo | – | 72 h | IC50 | > 10 µM |
